# Assay results pooled from the literature.
# Lines come from different studies, so protocols differ. “And” joins repeats or separate records; there may be more than shown.
SMILES,organism,assay,system,setting,how to read,measurement,result
CN[C@H](CC(C)C)C(=O)N[C@H]1C(=O)N[C@@H](CC(N)=O)C(=O)N[C@H]2C(=O)N[C@H]3C(=O)N[C@H](C(=O)N[C@H](C(=O)O)c4cc(O)cc(O)c4-c4cc3ccc4O)[C@H](O)c3ccc(c(Cl)c3)Oc3cc2cc(c3O[C@@H]2O[C@H](CO)[C@@H](O)[C@H](O)[C@H]2O[C@H]2C[C@](C)(N)[C@H](O)[C@H](C)O2)Oc2ccc(cc2Cl)[C@H]1O,Staphylococcus aureus,,"CAAS-2019-CAAS-2019-11 clinical drug-resistant isolate, PBS",,,MBC,4 µg/mL
C[C@@H]1C[C@H](O)[C@]2(O)O[C@@H]3C[C@@]4(C=O)[C@@H](CC[C@@H]5[C@@H]4CC[C@]4(C)[C@@H](C6=CC(=O)OC6)CC[C@]54O)C[C@H]3O[C@@H]2O1,Schistosoma mansoni,microscopic viability score,adult worms,"1 µM, 72 h",,viability effect,97%
CCOC(=O)C1=C(CN2CCOCC2)NC(c2nccs2)=NC1c1ccc(F)cc1Br (stereo not shown),Hepatitis B virus,measured: HBV pgRNA,chronic HBV infection patients,"120 mg/day, 28 days, together with: ritonavir 100 mg/day",reference: baseline,maximum change in serum pgRNA,-1.28 log10 copies/mL
COc1cnc(OC)n2nc(NS(=O)(=O)c3c(OCC(F)F)cccc3C(F)(F)F)nc12,Arabidopsis thaliana,,"Col-0, seed germination, dark","200 µg/mL, 7 days, 22 °C",,root length inhibition,100%
Cc1c2c(nn1C)CSCc1cc(n(C)n1)CSc1cc(c3ccccc3c1)OCCCc1c(C(=O)O)n(C)c3c-2c(Cl)ccc13,Staphylococcus aureus,"label-free quantitative proteomics, measured: SAOUHSC_00435 protein",SA113,concentration not given,reference: untreated control,log2 fold change,4.45
O=c1ccn([C@@H]2O[C@H](CO)[C@@H](O)[C@H]2O)c(=S)[nH]1,Dengue virus,viral replication,"BHK-21, DENV4",,,EC50,1800 nM
COc1ccccc1Cc1cc2c(C(C)C)ccc(C)c2oc1=O,Schistosoma mansoni,microscopic viability scoring,newly transformed schistosomula,"10 µM, 72 h, prescreen",,viability reduction,10.7%
CC[C@H](C)[C@H](NC(=O)[C@H](C)NC(=O)[C@H](CCCCN)NC(=O)[C@H](CC(C)C)NC(=O)[C@H](C)NC(=O)[C@@H](NC(=O)[C@H](Cc1c[nH]cn1)NC(=O)[C@H](CC(C)C)NC(=O)[C@@H](NC(=O)[C@@H](NC(=O)[C@H](CCCCN)NC(=O)[C@H](C)NC(=O)[C@H](C)NC(=O)[C@H](CO)NC(=O)[C@H](CCCCN)NC(=O)[C@H](Cc1ccccc1)NC(=O)[C@@H](NC(=O)[C@H](CCCCN)NC(=O)[C@H](CC(C)C)NC(=O)[C@H](Cc1ccccc1)NC(=O)[C@H](CO)NC(=O)[C@H](CCCCN)NC(=O)[C@H](Cc1c[nH]c2ccccc12)NC(=O)[C@H](CCCCN)NC(C)=O)[C@@H](C)O)[C@@H](C)O)C(C)C)[C@@H](C)O)C(=O)N[C@@H](CO)C(=O)N[C@@H](CO)C(N)=O,Proteus,,,20 strains,,MIC50,> 64 µg/mL
COC(=O)N[C@H](C(=O)N1CCC[C@H]1c1ncc(-c2ccc(-c3ccc(-c4cnc([C@@H]5CCCN5C(=O)[C@@H](NC(=O)OC)C(C)C)[nH]4)cc3)cc2)[nH]1)C(C)C,Hepatitis C virus,,replicon cells,"75% effect level, together with: NS5B inhibitor, ratio 2.5:1",,combination index,0.7
CCCCc1ccc(CNc2nc(N(C)C)nc(N(C)C)c2/N=N/c2ccc(Cl)cc2)cc1,Ostrinia furnacalis,leaf dipping,,100 mg/L,,mortality,73.3%
CCC(/N=N/c1ccc(Br)c2ccccc12)=C1SCCCS1,Schistosoma mansoni,microscopic viability scoring,newly transformed schistosomula,"10 µM, 72 h, prescreen",,viability reduction,24.1%
COc1ccc(C[C@H]2NC[C@H](O)[C@H]2OC(C)=O)cc1,Trichomonas gallinae,"trophozoite viability, CCK-8",,"20 µM, 24 h",,inhibition,97.9%
O=[N+]([O-])c1ccc(C2=[N+]([O-])c3ccccc3N3CCN=C23)cc1,Fusobacterium nucleatum,,,,,MIC90,≤ 0.06 µg/mL
Nc1ncnc2c1ncn2[C@@H]1O[C@@H]2COP(=O)(O)O[C@H]3[C@@H](O)[C@H](n4cnc5c(=O)[nH]cnc54)O[C@@H]3COP(=O)(O)O[C@H]2[C@H]1O,West Nile virus,"RNA sequencing Reactome analysis, measured: Collagen degradation (R-HSA-1442490)",HFF-1,"concentration not given, downregulated pathways, together with: West Nile virus infection",reference: WNV-infected without compound,fold enrichment,6.63
c1ccc(-n2nncc2-c2cc3ccc2CCc2ccc(cc2)CC3)cc1,Schistosoma mansoni,microscopic viability scoring,newly transformed schistosomula,"10 µM, 72 h, prescreen",,viability reduction,17.2%
C[C@]12CC[C@@H]3c4ccc(O)cc4CC[C@H]3[C@@H]1CC[C@@H]2O,Arabidopsis thaliana,"qRT-PCR, measured: NCED3",,"1 µM, unit not given",reference: untreated,mRNA level,0.823 and 0.891
CS(=O)(=O)CCCn1c(Cn2c(=O)n(CC(F)(F)F)c3ccncc32)cc2cc(Cl)ccc21,respiratory syncytial virus,RT-qPCR,"hospitalized infants 1-24 months, nasal swab","oral, 1-9 mg/kg daily, day 6, all doses combined",reference: baseline,LS mean viral load change,-3.86 log10 copies/mL
CC(C)[C@H](NC(=O)[C@H](CCCNC(=N)N)NC(=O)[C@H](Cc1c[nH]c2ccccc12)NC(=O)[C@H](CCCNC(=N)N)NC(=O)[C@H](Cc1c[nH]c2ccccc12)NC(=O)[C@H](Cc1c[nH]c2ccccc12)NC(=O)[C@H](Cc1c[nH]c2ccccc12)NC(=O)[C@H](CCCNC(=N)N)NC(=O)[C@H](Cc1c[nH]c2ccccc12)NC(=O)[C@H](CCCNC(=N)N)NC(=O)CN)C(N)=O,Candida albicans,broth microdilution,"CGMCC 2.209, RPMI 1640-MOPS","48 h, 30 °C, together with: NH4Cl 6 µM",,MIC,8 µM
CCCCCC[C@H]1C(=O)O[C@H](C)[C@H](NC(=O)c2cccc(NC=O)c2O)C(=O)O[C@@H](C)[C@@H]1OC(=O)CC(C)C,Bovine alphaherpesvirus 1,viral replication,"MDBK, wild type",,,IC50,12 nM
COc1cccc(C(=O)NN(C(=O)c2cc(C)cc(C)c2)C(C)(C)C)c1C,Anopheles coluzzii,,pyrethroid-resistant,"topical, 0.4 %",reference: control,adult lifespan,decreased
C[C@@H](O[C@H]1OCCN(Cc2n[nH]c(=O)[nH]2)[C@H]1c1ccc(F)cc1)c1cc(C(F)(F)F)cc(C(F)(F)F)c1,Human immunodeficiency virus 1,viral replication,"PBMC, subtype D isolate from Senegal, X4, SI",,,IC50,6850 nM
N=C(N)c1ccc(OCc2cc(COc3ccc(C(=N)N)cc3)cc(-c3ccccc3)c2)cc1,Escherichia coli,checkerboard,BW25113 mcr-1 plasmid,"unit not given, together with: rifampicin",lower = stronger synergy,FICI,≤ 0.039
Cn1c(=O)ccc2ccc(F)c(CCNC[C@H]3CN(c4cnc5c(n4)NC(=O)CO5)C(=O)O3)c21,Achromobacter spp.,,,,,MIC50,0.06 µg/mL
C[C@]12CCC(=O)C[C@H]1CC[C@@H]1[C@@H]2CC[C@]2(C)[C@@H](C3=CC(=O)OC3)CC[C@]12O,Schistosoma mansoni,microscopic viability score,newly transformed schistosomula,"10 µM, 72 h",,viability reduction,24.4%
C[N+]1=C2C=C(N/C=C/c3ccc(O)cc3)C(=O)c3[nH]cc(c32)CC1,Saccharomyces cerevisiae,"cell growth, liquid culture",BY4741,"100 µM, 24 h",,inhibition,8.7%
CC(=O)O[C@@H]1CC[C@@]2(C)[C@H](CC[C@@H]3[C@@H]2CC[C@]2(C)[C@@H](C4=CC(=O)OC4)CC[C@]32O)C1,Schistosoma mansoni,microscopic viability score,newly transformed schistosomula,"10 µM, 72 h",,viability reduction,100%
CC(C)C[C@H](NC(=O)[C@H](CCN)NC(=O)[C@H](CCN)NC(=O)[C@@H](Cc1ccccc1)NC(=O)[C@H](CC(C)C)NC(=O)[C@H](CCN)NC(=O)[C@H](CCN)NC(=O)[C@@H](CCN)NC(=O)[C@@H](N)CSCCOC(=O)C(C)(C)C)C(N)=O,Acinetobacter calcoaceticus,BHI agar spot plating,,"24 h, 37 °C",,MBC,> 128 µM
Cc1c(COC2CCC(C(F)(F)F)CC2)c(C(=O)Nc2cccc(OC(F)(F)F)c2)nn1CC(F)(F)F (stereo not shown),Schistosoma mansoni,microscopic viability scoring,newly transformed schistosomula,"10 µM, 72 h, prescreen",,viability reduction,6.9%
CCc1cccc(C)c1N(C(=O)CCl)[C@@H](C)COC,Lolium multiflorum,,,2.1 µg/mL,,germination,0%
CCN(CC)c1ccc2cc(N)c(=O)oc2c1,Schistosoma mansoni,microscopic viability scoring,newly transformed schistosomula,"10 µM, 72 h, prescreen",,viability reduction,6.3%
Nc1ncnc2c([C@@H]3N[C@H](CO)[C@@H](O)[C@H]3O)c[nH]c12,Rhinovirus A,viral replication,HRV2 HGP,94.7 µM,,inhibition,94.8%

# Some of these lines once more:
SMILES,organism,assay,system,setting,how to read,measurement,result
N=C(N)c1ccc(OCc2cc(COc3ccc(C(=N)N)cc3)cc(-c3ccccc3)c2)cc1,Escherichia coli,checkerboard,BW25113 mcr-1 plasmid,"unit not given, together with: rifampicin",lower = stronger synergy,FICI,≤ 0.039
Cc1c(COC2CCC(C(F)(F)F)CC2)c(C(=O)Nc2cccc(OC(F)(F)F)c2)nn1CC(F)(F)F (stereo not shown),Schistosoma mansoni,microscopic viability scoring,newly transformed schistosomula,"10 µM, 72 h, prescreen",,viability reduction,6.9%
COc1cnc(OC)n2nc(NS(=O)(=O)c3c(OCC(F)F)cccc3C(F)(F)F)nc12,Arabidopsis thaliana,,"Col-0, seed germination, dark","200 µg/mL, 7 days, 22 °C",,root length inhibition,100%
COc1ccccc1Cc1cc2c(C(C)C)ccc(C)c2oc1=O,Schistosoma mansoni,microscopic viability scoring,newly transformed schistosomula,"10 µM, 72 h, prescreen",,viability reduction,10.7%
CCCCCC[C@H]1C(=O)O[C@H](C)[C@H](NC(=O)c2cccc(NC=O)c2O)C(=O)O[C@@H](C)[C@@H]1OC(=O)CC(C)C,Bovine alphaherpesvirus 1,viral replication,"MDBK, wild type",,,IC50,12 nM
